Assay results collected from several papers.
Lines come from different studies, so protocols differ. Values joined by “and” are separate records of one study, mostly repeats; a detail may differ. Numbers after ± are the reported error.

SMILES	tested on	test	test system	conditions	how to read	endpoint	result
Cc1n[nH]c2ccc(-c3cc(OC[C@@H](N)Cc4ccccc4)cnc3-c3ccoc3)cc12		kinase binding, competitor, MIB/MS competition, measured: CKA1	Candida albicans cell lysate	1 µM	baseline: DMSO	log2 fold change	0.0806
O=Cc1ccc(O)cc1		DPPH radical		300 µg/mL		radical scavenging	7.42 ± 1.16%
C=CCn1c(=O)c2cnc(Nc3ccc(N4CCN(C)CC4)cc3)nc2n1-c1ccc2c(n1)[C@@](O)(CC)CC2			BALB/c nude mouse, DU-145 xenograft	oral, 80 mg/kg, 5 d on 2 d off ×4, day 30	baseline: vehicle	tumour volume	59.6%
O=C(O)CNC(=O)Cc1ccccc1			ventricular cardiomyocytes, C57BL/6 mouse	dose not given, 0.856 s		sarcomere length	1.62 µm
COc1cc2cc(-c3ccc(CC(=O)Nc4cc(C(C)(C)C(F)(F)F)no4)cn3)cnc2cc1OC		RECIST v1.1	human RET-altered solid tumours	11 50 mg tablets, phase I		objective response rate	11%
Cn1cc(Nc2nccc(-c3ccc4c(c3)CN(C3COC3)CC[C@H]4NC(=O)c3cn(C(C)(C)C)nn3)n2)cn1		measured: PFKFB4 signaling pathway	splenic B cells, mice	30 mg/kg, IgD-activated in vivo	baseline: vehicle, direction not given	pathway activation z-score	1.13
N[C@@H](CCCCN[C@@H](CCC(=O)O)C(=O)O)C(=O)O		binding, equilibrium dialysis LC-MS		5 µM, thermostabilized A2AR-BRIL construct	baseline: no-protein control, direction not given	z-scored log2 fold change	0.0393
Cn1cc([C@H]2C[C@H]3CSC(N)=N[C@@]3(c3ccc(F)cc3F)CO2)cn1		measured: Aβx-42	Mus musculus wild-type, brain	subcutaneous, 50 mg/kg, 18 h		Aβ42 level	0.51 ng/g
CC1(C)CCC(c2ccc(Cl)cc2)=C(CN2CCN(c3ccc(C(=O)NS(=O)(=O)c4ccc(N[C@H](CCN5CCOCC5)CSc5ccccc5)c(S(=O)(=O)C(F)(F)F)c4)cc3)CC2)C1		cell killing, flow cytometry PI exclusion	canine blood CD21+ B cells, dog 33	24 h		EC50	461 nM
COc1ccc(-c2cncc(N[C@@H](C)c3cccc(NC(=O)c4cncc(C)c4)c3)n2)cc1OC		measured: rno-miR-874-3p	rat SU5416/hypoxia model, lung	dose not given	baseline: SU5416/hypoxia vehicle	fold change	1.14
N#Cc1ccn2c(-c3ccncc3)c(-c3ccc(F)cc3)nc2c1		kinase binding, competitor, MIB/MS competition, measured: PKH3	Candida albicans cell lysate	1 µM	baseline: DMSO	log2 fold change	-0.0424
O=C(O)CCCC[C@@H]1SC[C@@H]2NC(=O)N[C@@H]21		binding, equilibrium dialysis LC-MS		5 µM, thermostabilized A2AR-BRIL construct	baseline: no-protein control, direction not given	z-scored log2 fold change	-1.38
O=C(c1ccc(OCCN2CCCCC2)cc1)c1c(-c2ccc(O)cc2)sc2cc(O)ccc12			male ICR-CD1 mice	intracerebroventricular, 100 µg/animal, no acetic acid		writhing count	0
CC(=O)N[C@@H](CCC(=O)O)C(=O)O		binding, equilibrium dialysis LC-MS		5 µM, thermostabilized A2AR-BRIL construct	baseline: no-protein control, direction not given	z-scored log2 fold change	0.393
O=C1N(Cc2ccccc2Cl)c2ccccc2C12NN=C(c1ccccc1)S2 (centres unmarked)			A549 cells, nude mouse, orthotopic model	40 mg/kg	baseline: placebo	lung tumour burden	decreased
NC(=O)c1cnc2[nH]ccc2c1N[C@@H]1[C@@H]2CC3C[C@H]1C[C@@](O)(C3)C2		flow cytometry, measured: CD4+ effector memory T cells	Japanese healthy subjects, peripheral blood	oral, 100 mg twice daily, day 7		change from baseline	0.13%
Cc1ccc(C(=O)Nc2ccc(CN3CCN(C)CC3)c(C(F)(F)F)c2)cc1C#Cc1cnc2cccnn12		platelet aggregation	platelet-rich plasma	1 µM, DMSO 100, together with: collagen 2 mg/mL		aggregation	7.6%
O=C1O[C@H]([C@@H](O)CO)C(O)=C1O		DPPH radical		300 µg/mL		radical scavenging	98.07 ± 0.39%
CC[C@@H]1[C@H](F)C(=O)N[C@@H]1COc1nccc2cc(C(N)=O)c(OC)cc12		ATP-site probe binding, ActivX profiling, measured: MAP3K2, MAP3K3	THP-1 cell lysate	0.04 mM, Lys2 site		inhibition	1.8%
CN(C(=O)n1cnc(-c2ccc[n+]([O-])c2)c1)C1CCCCC1		measured: LEA	human, plasma	10 mg single dose		AUC(0-t)	310 ng·h/mL
CC(C)NCC(O)c1ccc(O)c(O)c1 (centres unmarked)			ventricular cardiomyocytes, C57BL/6 mouse	dose not given, 0.048 s		sarcomere length	1.72 µm
C[C@H](Oc1ccc(Br)cc1-c1ccon1)C(=O)O		first response peak	human, tibialis anterior muscle	400 mg, 15 Hz, single ascending dose		difference from placebo	5.47%
COCCOC(=O)C1=C(C)NC(C)=C(C(=O)OC(C)C)C1c1cccc([N+](=O)[O-])c1 (centres unmarked)		whole-cell current clamp	DRG neurons, naive rat	dose not given, 4 h		action potential threshold	-34.9 mV and -26.9 mV and -25.5 mV and -31.4 mV and -35.3 mV
N#Cc1ccc2c(c1)[C@H]1CCCN(C(=O)c3ccc4[nH]cnc4c3)[C@H]1C2		meal tolerance test	human, Phase II trial	240 mg once daily, day 28, AUC0-2 h, adjusted mean	baseline: baseline	insulin AUC change	-79.1 pmol/h/L
Nc1ncnc2c1ncn2[C@H]1C[C@H](O)[C@@H](COP(=O)(O)O)O1		binding, equilibrium dialysis LC-MS		5 µM, thermostabilized A2AR-BRIL construct	baseline: no-protein control, direction not given	z-scored log2 fold change	-0.106

SMILES	tested on	test	test system	conditions	how to read	endpoint	result
C[C@@H](O)CCOC(=O)C[C@@H](C)O		measured: insulin	human, plasma	concentration not given, 60 min	baseline: baseline	log2 fold change	1.09 pg/mL
N[C@@H](C[C@@H](O)C(=O)O)C(=O)O		binding, equilibrium dialysis LC-MS		5 µM, thermostabilized A2AR-BRIL construct	baseline: no-protein control, direction not given	z-scored log2 fold change	0.394
Cc1cc(C)c(CNC(=O)c2cc(Cl)c3c(c2C)O[C@@](C)([C@H]2CC[C@H](N(C)C)CC2)O3)c(=O)[nH]1			human relapsed/refractory NHL	dose not given, measurable baseline disease		overall response rate	45%
CCN(CCO)CCCOc1ccc2c(Nc3cc(CC(=O)Nc4cccc(F)c4)[nH]n3)ncnc2c1	NLRP3 inflammasome (mouse)		mouse BMDM	10 µM		inhibition	-76%
C[C@H]1C[C@H]2CSC(N)=N[C@@]2(c2nc(NC(=O)c3ccc(OC(F)F)cn3)cs2)CO1		measured: Aβ1-40	healthy adults, plasma	200 mg single dose, 24 h post-dose	baseline: placebo	percent change from baseline	-90.2%
COc1cc(Nc2ncc3c(n2)-c2ccc(Cl)cc2C(c2c(F)cccc2OC)=NC3)ccc1C(=O)O			female NOD/scid mice, ALL-2 B-precursor ALL xenograft	10.4 mg/kg, 5 days weekly, score scale 0 to 10	direction not given	median response score	8
OC(CCN1CCCCC1)(c1ccccc1)C1CC2C=CC1C2 (centres unmarked)		resting-state EEG	healthy elderly humans	oral, 2 mg, eyes closed, LS mean		power, EEG, Alpha, O2-Pz	20.3 µV²
O=C(O)c1cc(Cl)ccc1S(=O)(=O)NCCCCN1C(=O)c2cccc3cccc(c23)C1=O			mouse small intestinal enteroids	concentration not given, applied post-irradiation		enteroid survival	no effect
OCC(O)CO		ELISA	female Slc25a13 knockout mice, serum	oral in drinking water, 5 % w/v, 2 days		plasma FGF21 level	329 pg/mL and 363 pg/mL and 289 pg/mL and 193 pg/mL and 412 pg/mL and 285 pg/mL and 218 pg/mL and 137 pg/mL
c1ccc(-c2n[nH]cc2-c2ccnc3ccccc23)nc1		kinase binding, competitor, MIB/MS competition, measured: KSP1	Candida albicans cell lysate	10 µM	baseline: DMSO	log2 fold change	1.28
O=P(O)(O)C(Cl)(Cl)P(=O)(O)O		immunostaining	mouse, SAH model, hippocampal fissure	dose not given, day 1	baseline: total area	Iba1-positive area	0.59%
COc1cc2nccc(Oc3ccc(NC(=O)NC4CC4)c(Cl)c3)c2cc1C(N)=O	NLRP3 inflammasome (mouse)		mouse BMDM	10 µM		inhibition	-21.6%
FC(F)(F)Oc1cccc(-c2ccnc3[nH]c(C(F)(F)F)nc23)c1			GAN diet MASH mice	300 mg/kg, 31 days	baseline: GAN control	plasma triglycerides	no effect
CCN1[C@@H](C(=O)NC23CCC(C(=O)O)(CC2)CC3)[C@H](c2cccc(Cl)c2F)[C@]2(C(=O)Nc3cc(Cl)ccc32)C12CCCCC2			human, advanced solid tumours	dose not given, whole population, RECIST		objective response rate	10%
COc1ccc2[nH]cc(CC(=O)O)c2c1		binding, equilibrium dialysis LC-MS		5 µM, thermostabilized A2AR-BRIL construct	baseline: no-protein control, direction not given	z-scored log2 fold change	0.0923
CCCCC1(CCCC)CN(c2ccccc2)c2cc(SC)c(OCC(=O)N[C@@H](C(=O)NCC(=O)O)c3ccccc3)cc2S(=O)(=O)C1		measured: 7α-hydroxy-4-cholesten-3-one	human, plasma	10 mg once daily, day 13		plasma C4	66.9 ng/mL
CO[C@H]1CC[C@H](N2C(=O)CNc3ncc(-c4ccc(C(C)(C)O)nc4)nc32)CC1		flow cytometry	stimulated T cells, human, blood	45 mg single dose, 3 h, mean	baseline: baseline	p4EBP1 change from baseline	-54.7%
CC(=O)Oc1cc2c(s1)CCN(C(C(=O)C1CC1)c1ccccc1F)C2 (centres unmarked)		platelet aggregation, light transmission aggregometry	human patients, platelet-rich plasma	dose not given, 15 min, inhibition threshold 90%, together with: ADP 5 µM		patients with inhibition above threshold	0%
NCC(=O)Nc1cncc(-c2nn3c(=O)cc(N4CCNCC4)nc3s2)c1		ADP-induced platelet aggregation, light transmission aggregometry	human, stable CAD on aspirin, ex vivo platelets	subcutaneous, 0.05 mg/kg, 360 min post-dose, mean value, together with: ADP 20 µM		inhibition	8.43%
COc1cc(O)c(CC=C(C)C)c(O)c1C(=O)/C=C/c1ccc(O)cc1			male Tac:SW mice, conventional and germ-free	in high-fat diet, dose not given	baseline: high-fat diet alone	hepatic total cholesterol	no effect
Nc1ncnc2c1ncn2[C@@H]1O[C@H](CSCC[C@H](N)C(=O)O)[C@@H](O)[C@H]1O		binding, equilibrium dialysis LC-MS		5 µM, thermostabilized A2AR-BRIL construct	baseline: no-protein control, direction not given	z-scored log2 fold change	0.356
O=C1O[C@H]([C@@H](O)CO)C(O)=C1O		superoxide scavenging		160 µM		inhibition	66.8%
OC[C@H]1O[C@@H](O[C@H]2[C@H](O)[C@@H](O)[C@H](O)O[C@@H]2CO)[C@H](O)[C@@H](O)[C@H]1O		binding, equilibrium dialysis LC-MS		5 µM, thermostabilized A2AR-BRIL construct	baseline: no-protein control, direction not given	z-scored log2 fold change	0.272
C[C@H](NC(=O)c1c(C(F)F)nn(C)c1Oc1cccc(C(F)(F)F)c1)c1ccc(C(=O)O)cc1		irRECIST	human, advanced tumours	750 mg		objective response rate	0%
CC(C)(C)c1ccc(/C=C/C(=O)Nc2ccc3c(c2)OCCO3)cc1		nociceptive behaviour	mouse	intraplantar, 10 µg		licking duration	0 s

A few entries again:
SMILES	tested on	test	test system	conditions	how to read	endpoint	result
O=C(O)CCCC[C@@H]1SC[C@@H]2NC(=O)N[C@@H]21		binding, equilibrium dialysis LC-MS		5 µM, thermostabilized A2AR-BRIL construct	baseline: no-protein control, direction not given	z-scored log2 fold change	-1.38
CC[C@@H]1[C@H](F)C(=O)N[C@@H]1COc1nccc2cc(C(N)=O)c(OC)cc12		ATP-site probe binding, ActivX profiling, measured: MAP3K2, MAP3K3	THP-1 cell lysate	0.04 mM, Lys2 site		inhibition	1.8%
O=P(O)(O)C(Cl)(Cl)P(=O)(O)O		immunostaining	mouse, SAH model, hippocampal fissure	dose not given, day 1	baseline: total area	Iba1-positive area	0.59%
CCCCC1(CCCC)CN(c2ccccc2)c2cc(SC)c(OCC(=O)N[C@@H](C(=O)NCC(=O)O)c3ccccc3)cc2S(=O)(=O)C1		measured: 7α-hydroxy-4-cholesten-3-one	human, plasma	10 mg once daily, day 13		plasma C4	66.9 ng/mL
Nc1ncnc2c1ncn2[C@H]1C[C@H](O)[C@@H](COP(=O)(O)O)O1		binding, equilibrium dialysis LC-MS		5 µM, thermostabilized A2AR-BRIL construct	baseline: no-protein control, direction not given	z-scored log2 fold change	-0.106
